Published values collected from several papers.
Numbered parts are unrelated; each lists some results of a single study. Changes are numbered by the printed parent chain.

Series 1 — target: CCND3, cyclin fold, Cln2 fusion (human); technique: yeast growth competition, sequencing; sample: yeast; setting: weak parent motif; reference: not given; direction: higher = stronger binding
Starting sequence: SAMHD1 docking peptide (human); ASKSRVQLFKDDP; partner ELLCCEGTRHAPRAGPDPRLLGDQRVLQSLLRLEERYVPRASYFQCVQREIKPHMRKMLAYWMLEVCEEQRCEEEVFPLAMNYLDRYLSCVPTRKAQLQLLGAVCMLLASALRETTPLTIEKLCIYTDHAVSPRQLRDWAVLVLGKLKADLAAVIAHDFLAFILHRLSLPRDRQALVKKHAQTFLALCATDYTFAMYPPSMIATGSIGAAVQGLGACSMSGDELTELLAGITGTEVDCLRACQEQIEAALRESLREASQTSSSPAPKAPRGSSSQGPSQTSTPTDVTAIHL
Change	normalised enrichment score
ASKSRVFLFKDDP [Q7F]	0.489
ASKSGVQLFKDDP [R5G]	0.0131
ASKERVQLFKDDP [S4E]	-0.113
ASKSYVQLFKDDP [R5Y]	-0.0903
ASKSRVQCFKDDP [L8C]	0.0638
ASKSRVHLFKDDP [Q7H]	0.244
ASKSRVQLFLDDP [K10L]	0.161
ASKSRVCLFKDDP [Q7C]	0.0797
ASKSAVQLFKDDP [R5A]	0.328
ASKSRVDLFKDDP [Q7D]	-0.0756
ASKSRVQLSKDDP [F9S]	0.616
ASKSFVQLFKDDP [R5F]	-0.00233
ASKSRVQHFKDDP [L8H]	-0.0863
ASKSRVQLFKDYP [D12Y]	0.679
ASKSRVQLFTDDP [K10T]	0.0294
ASKSRVQLFKDEP [D12E]	0.616
ASKSRVGLFKDDP [Q7G]	0.206
ASKSRVQLFKDFP [D12F]	-0.253
ASKSRVQLFKDWP [D12W]	-0.304
ASKSKVQLFKDDP [R5K]	-0.0935
ASKSRVQLIKDDP [F9I]	0.0644
ATKSRVQLFKDDP [S2T]	-0.0795
ASKSRQQLFKDDP [V6Q]	-0.712
ASKSRVQLFQDDP [K10Q]	0.0977
ASKSRGQLFKDDP [V6G]	0.0916

Series 2 — technique: RNA Bind-n-Seq; molecule type: RNA; sample: in vitro; concentration: 20 nM; setting: 6-mer, flanks averaged, single round; together with: 150 mM KCl; reference: input library; direction: higher = stronger binding
Target: TAR DNA-binding protein 43, full length, His tag (TARDBP, Homo sapiens, UniProt Q13148, residues 1-414)
Sequence	6-mer enrichment (R)
ACUACA	0.613
GAUGCU	0.783
CCUAUA	0.602
CCUUAU	0.618
AUGCAC	0.695
CUCCCG	0.65
CCACUG	0.71
GCGAUC	0.821
CCGUAU	0.632
GGCCAC	1.1
CGAAUA	0.652
CAUUCA	0.558
AAUGGG	2.12
GCAUUA	0.637
AACCGU	0.612
GCACUU	0.65
CAGGAA	0.897
ACGCCA	0.697

Series 3 — technique: protein binding microarray; molecule type: double-stranded DNA, one strand shown; sample: in vitro; concentration: not given; reference: not given; direction: higher = stronger binding
Target: Histone acetyltransferase KAT6A, both winged helices, GST fusion (KAT6A, Homo sapiens, UniProt Q92794, residues 1-181)
Setting: 8-mer, flanks averaged, mean of 2 arrays, mostly near background
Target sequence (chain): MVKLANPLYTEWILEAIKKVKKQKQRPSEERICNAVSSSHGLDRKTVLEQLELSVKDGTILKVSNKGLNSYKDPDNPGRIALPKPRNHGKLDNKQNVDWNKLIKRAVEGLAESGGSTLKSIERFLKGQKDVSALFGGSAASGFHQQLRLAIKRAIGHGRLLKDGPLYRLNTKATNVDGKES
Sequence	E-score
GAGTACCC	0.00344
CCCGGTCC	0.175
AGTCAACA	-0.174
ATAACGAC	-0.0398
AGGAATGA	-0.0781
CCTCTCCA	-0.161
GCTTTAAA	-0.127
GAATACGC	0.161
ACTTGCAT	-0.155
GCGTGCTA	0.0664
CGATTAAG	-0.0728
GAGAGTGC	-0.0258
CGTGGAGC	0.0871
CCCTCGAA	-0.193
AAACCTCG	0.0665
AAGGTCCG	0.125
ATCTCTCA	-0.096
AGGAGTCA	-0.247
GCTTTCAA	0.0842
CGTTGTGA	0.0344
ATATTTCA	-0.178

Series 4 — technique: RNA Bind-n-Seq; molecule type: RNA; sample: in vitro; concentration: 365 nM; reference: no-protein control; direction: higher = stronger binding
Target: RNA binding protein fox-1 homolog 2, RRM domain, GST-SBP tag (RBFOX2, Homo sapiens, UniProt O43251-10, residues 100-194)
Setting: natural RNA segment, single round, ends assumed
Constant ends, left off below: GGGAGUUCUACAGUCCGACGAUC … UGGAAUUCUCGGGUGCCAA
Residues (chain): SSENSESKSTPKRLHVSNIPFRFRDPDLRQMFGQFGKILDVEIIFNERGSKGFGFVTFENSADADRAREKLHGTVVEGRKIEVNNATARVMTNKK
Sequence	RBNS enrichment (R)
AAAACAGUUUUUAAUUUUAGAAAUCUUAUACUUGAAAGAAACCUCAAUUAUCAGUGGCUUUAUGAAGUAAAGUUAAAAACAAACAUAGGAAAUGUGAAAAUAUUUGUGUU	2.19
GUCGUUAGGACCAAAUGUAGACUGGCUCAGGACCUGUAAGGAAAUCACAGGUUCAGAGAUCUCUUAGGGAAGUUGCUCAAAAUCCUGUUUGUAGUUAAGGUGUCUGGGGU	1.04
UUUCCCCAGGCCUUUGCCCGCUUCUCCCUGGUCACCCUUGUCCAGUGUGAGUUUUGUCACAUUCUGGGCAGGUAGAGACGUGAAUGCUCUGUGGACCCUCCCCCUCUCCC	1.02
AUUUCCAUUGGAGAUCACUGUCCAGCCAUCUAAAGCCCUGUUAUUCGAGUCAAGCUUAUCCCCAUUUUUGAGAGAGAAGGGGUACCUUCACAGACCGAUGCCCUUCUUAC	0.245
GAUACUUUUAUACUUGUUUCUGCUUUUGCUGCUCUUGAUCCCACCUUUGCUCCUGACAACCCUCAUUAAUAAAGACCAGUGAAGACCAAUGCUUUGCCACCACUCUCUUG	0.776
UAGUCAGUGCCCUAAGUAUUCGUAGAGUGAAGAAUGCCAGCCUCUCUUGUCCCUGGUUUCCUUAUGUGUUGAAUGUGGUUGAGUUUGUCCAUUGCUAGGGAGAGACUUCC	4.34
AAUAUGGAGUAAGUAUUGUAAACUAUUUCAUCGCGGGGAUUGUGGGUGUUAUACAUACAUUUAGGACUGCAAUUUUUUGGUAUUUUUUGUAUUGUAAAAUAACAGCUAAU	3.52
CUUUAGCUAUUUAGGGACCAAAGGACCAAACUUUUUAUUGCAGAUGUGUAGCUCUAUGUCAAAUAGAGGGGGAAUGGAGGACCCCCUCCUUCCUGCCUCAUGGCUGUUCU	0.455
GCCACUAUGCUUGGCUGGCCUUGCUCUUGCCACAAAAGCUCGUUGGAUGGAAAAAGCUGAAGCAAGUGGCUGUUCUCUGAUCAGGCGGGGGAUGCCUCUUUUCCUCGCGA	0.492
CCACUGGCCUGAAUAAUUAGCCUUUUCCAGAUCUUCAGUAUCUUCCACAACUACUGCCAUACCCUGUGUUGUAUCAUUUGACCAGGAGGGAAACCUUGAAUUGGGGUGUG	0.426
CAUUUCCCCCAAAACCUUAGACAUUCAUAGUAGAUUUUAAUUAGUUAGCUUUCUAACUAGUCAGAUUUCUGCCCAAAGUGCUUAGUCAAUAGUAAUUAAGAUAUAGCUUC	0.296
UAUUCACUUUAUAUCCCACUCACUGUCUCCCUCCCUGUCACUUAUUUCCACAAUCAUCCCCCCACCCCCAUCUCCCCUUCUUCUCUUUGCUGGUGGGGUCCCCCCUGGUA	0.789

Series 5 — technique: RNA Bind-n-Seq; molecule type: RNA; sample: in vitro; concentration: 200 nM; setting: whole 134-nt RNA, ends assumed; together with: 150 mM LiCl; reference: input library; direction: higher = stronger binding; library: 7-deaza-guanosine replaces G
Target: Ras GTPase-activating protein-binding protein 1, full length (G3BP1, Homo sapiens, UniProt Q13283)
UniProt Q13283, sequence (whole entry, looked up): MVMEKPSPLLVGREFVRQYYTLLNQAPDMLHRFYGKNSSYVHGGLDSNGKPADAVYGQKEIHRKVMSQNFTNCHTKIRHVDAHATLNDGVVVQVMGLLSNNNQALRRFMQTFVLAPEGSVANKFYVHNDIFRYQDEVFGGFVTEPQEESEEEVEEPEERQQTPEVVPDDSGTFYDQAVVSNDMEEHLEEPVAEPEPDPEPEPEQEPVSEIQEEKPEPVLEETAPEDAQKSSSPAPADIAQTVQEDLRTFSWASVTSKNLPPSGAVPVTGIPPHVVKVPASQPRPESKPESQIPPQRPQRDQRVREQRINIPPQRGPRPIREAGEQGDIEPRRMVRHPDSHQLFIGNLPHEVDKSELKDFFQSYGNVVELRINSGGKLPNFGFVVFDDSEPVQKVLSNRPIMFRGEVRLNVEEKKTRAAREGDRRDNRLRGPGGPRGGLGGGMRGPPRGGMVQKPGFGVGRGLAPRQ
Constant ends, left off below: GGGAGUUCUACAGUCCGACGAUC … UGGAAUUCUCGGGUGUCAAGG
Sequence	log2 enrichment
ACCAUGCAGGUGGGCAUCUUUGGGAAGUGGAAAAAGGGGGGGAUAGGGAGGGGGGUAACACUUUGGGAACAGGUGGUCCCAGGUCGUUUC	0.428
AUUAAUUUGUACACAGACAGGGAAACUGGCAAGCUGAAGGGAGAGGCAACGGUCUCUUUUGAUGACCCACCUUCAGCUAAAGCAGCUAUU	-1.77
UGGGAGGUGGAUUUAGUUUAUUUUUUUAGCUCAUUUCCAGGGGUGGGAAUUUUUUUUUAAUAUGUGUCAUGAAUAAAGUUGUUUUUGAAA	-0.531
AGUCCUGUGCUACACAUCGUAUGUACCGAAUCGGUUUUGGGGUUUUGGGUUUUGGGGAAAGUAUUAUGUUACGCCGUUCGGAUCUGCACU	-0.3
GUCCUGUGCUACACAUCGUAUGUACCGAAUCGGGUUUUUGGUUUUUGGGUUUUUGGGGAAAGUAUUAUGUUACGCCGUUCGGAUCUGCAC	-0.586
AGUCCUGUGCUACACAUCGUAUGUACCGAAUCGGGGAGGGGUUUUUUUGGGGUGGGGAAAGUAUUAUGUUACGCCGUUCGGAUCUGCACU	0.742
AGUCCUGUGCUACACAUCGUAUGUACCGAAUCGGGAAAAAAAGGGUGGGUUUUUGGGAAAGUAUUAUGUUACGCCGUUCGGAUCUGCACU	-1.64

Series 6 — technique: DHFR PCA, dose-response; sample: yeast; setting: Hill fit, mean, not affinity; together with: (+)-ABA, dose series; direction: lower = more sensitive
Target: ABI1, truncated, D143A, DHFR fusion (Arabidopsis thaliana, UniProt P49597)
Starting sequence: PYL1, truncated, DHFR fusion (Arabidopsis thaliana, UniProt Q8VZS8); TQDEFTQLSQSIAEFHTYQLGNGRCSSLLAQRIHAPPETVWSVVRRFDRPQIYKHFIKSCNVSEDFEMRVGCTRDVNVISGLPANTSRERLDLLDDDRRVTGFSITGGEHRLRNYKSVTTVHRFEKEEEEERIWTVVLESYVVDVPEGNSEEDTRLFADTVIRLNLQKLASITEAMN
Change	ABA EC50 [µM]
R111M	26.3
Q31F	106
E4W	2.18
A170H	351
R90H	18.6
P146V	140
Q10V	3.46
F157L	7.27
I12D	205
R24Y	22.4
F124H	9.45
E174K	23
S27D	5.04
T106K	25.7
L91M	8.36

Further values, each from its own experiment
Substance	target	test	system	setting	how to read	measurement	value
PhoQ, residues 284 288 289 292 302 303 TSTLRA	PhoP, residues 12 14 15 18 19 LQHIR (Escherichia coli, UniProt P23836)	Sort-seq, measured: YFP reporter	E. coli	PhoQ-PhoP variant library, together with: 10 µM Mg2+	reference: high Mg2+ state, higher = stronger signaling	fold induction	15.5

Some of these lines once more (series 6):
Change	ABA EC50 [µM]
S27D	5.04
R111M	26.3
P146V	140
E174K	23
F124H	9.45
E4W	2.18
I12D	205
Q31F	106
Q10V	3.46
R24Y	22.4
R90H	18.6
F157L	7.27
